Published values gathered from unrelated publications.
Each numbered part is a random draw from the data of one study; scales do not carry over between parts.

Block 1
Target: RNA binding protein fox-1 homolog 2, RRM domain, GST-SBP tag (RBFOX2, Homo sapiens, UniProt O43251-10, residues 100-194)
Technique: RNA Bind-n-Seq
Molecule type: RNA
Sample: in vitro
Tested at: 365 nM
Notes: natural RNA segment, single round, ends assumed
Reference: no-protein control
Direction: higher = stronger binding
Endpoint: RBNS enrichment (R)
Constant ends, left off below: GGGAGUUCUACAGUCCGACGAUC … UGGAAUUCUCGGGUGCCAA
Construct (chain): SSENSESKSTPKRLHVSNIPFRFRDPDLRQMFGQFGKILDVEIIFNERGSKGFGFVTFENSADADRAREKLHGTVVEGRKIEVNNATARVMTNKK
GUGCGUCGCCAGGACUUCUCUGGGCUGUGUUUAAACGGCCCGCAUCUUAAUUUUUCUCCCUUCUUUCUUUUUUUGGCUUUGGGAAAAGCAUCAUUUUACCAAACAUACCG: 1.28
GUAAAUGUAUAAAUGUAUAUUGUGUUGUAUGUAUAUUUUAUAUUUAUAAUAAAUGCAAACUAAUUCUGGCCGUGUUCUAAGGUUUUUUUGUUUUUUGUUUUUGUCAGAUC: 0.98
CUGGAAUAGCUGACUACCCAGGGAGCCACCCAGAUGGGGAAUCCAGCUUCCUUCUUCACCCGCCCCCUCCAGGGUUAUUAAGCAUUUUUUUUUUCUUUUCUGCAAACCUU: 0.851
AAUAUCAGUUACUCAGCCCUGGGCCCCACCACCUAGGCCACUCCUCCAAAGGAAGUCUAGGAGCUGGGAGGAAAAGAAAAGAGGGGAAAAUGAGUUUUUAUGGGGCUGAA: 0.412
GAGCCCUCAGAAUGCCCACCAUGCACACAGAGACUCCAUUCUCCCCAGGACCAAGUCCUCUGCUGUUGGGGACCAUGGCCUGUCUCCUCACCUUAGUCCCUGGGCGUUUG: 1.37
CCUUCUUAACAAGUAUAGUCAUGGCACCACGUAACAUUUUGGUCAAUGACAUUGUAUAAAGGGUGGUCUCAUAAGAUUAUACCAUAUUUUUACUGUACCUUUUCUAUGUC: 0.466
UCUUCUUUGACUUUGUGCUUGCUCUUUAAAGUGUCCUAAGAAAAUUAAUUUUUUCAGGUAUUUUUCUAUUUAGUGUUGCAGCCAAAGAGUAUUUAAAUUAAGUCUUUGCU: 0.464
UGUGAUUUUUAACACAUAUAUUUCUUCCAUAUUCAGAUUGGCAUUCAUAUAUGUAUCCAUUCUGUAGAACACAUCAUGUUAAUAUAGUAUACAUUUAAAAAAAUACUACU: 0.339
GCAUUCCCCUGACAAAGGUAUCAUGUGUACAGCUCAGUAGUGUGCCCUGUCCUUCUCAUGGACUCCAUUCAUGUCUGCUCCUCACUAACAGACUUGGGUUUUCCCAAUAC: 0.335
GUGUCUCUUUGGGAGAUGGUGUUCAAGUGGGAUACCUAAGUCUUCCCGUGGCUAGAUCCAGAGCAGAUUCAGCCGGCUCAUUUCCAAGGGCUGGGCCACUGCACAGUUUG: 0.304
AGAGAAAAGAGAAAGUGUUUUAUAUACGGUACUUAUUUAAUAUCCCUUUUUAAUUAGAAAUUAAAACAGUUAAUUUAAUUAAAGAGUAGGGUUUUUUUUCAGUAUUCUUG: 0.786
AGUAUGUUUGUGUUAAUAAAGCCAGGGCGUUUCACACUUUAUAUGAACUUCCCUUUUUUUAAGAAAUGGAAAUUUGACAUGUAAAAUAAAUCAAACUUGGUAAACAGGGC: 0.573

Block 2
Target: Prothrombin, mature alpha-thrombin (F2, Homo sapiens, UniProt P00734)
Technique: aptamer microarray, sandwich
Molecule type: DNA with 2'F-ANA
Sample: in vitro
Tested at: 200 nM
Notes: whole 15-mer aptamer, many near background
Together with: Cy3 exosite-II aptamer, 400 nM
Direction: higher = stronger binding
Endpoint: mean fluorescence intensity
Sequence: GGTTGGTGTGGTTGG
2'F-ANA at 2 3 4 6 8 10: 190 a.u.
2'F-ANA at 3 5 6 7 9 12: 231 a.u.
2'F-ANA at 2 3 5 7 9 10 13: 53.9 a.u.
2'F-ANA at 1 2 4 5 7 8 13: 52.6 a.u.
2'F-ANA at 1 2 6 7 8 10 11 13 14 15: 49.7 a.u.
2'F-ANA at 1 4 5 7 8 9 11 13 14 15: 58.9 a.u.
2'F-ANA at 2 3 5 6 7 8 9 10: 52.6 a.u.
2'F-ANA at 4 5 9 13 14 15: 47.5 a.u.
2'F-ANA at 1 2 4 8 9 12 14 15: 62 a.u.
2'F-ANA at 1 3 4 6 7 8 10 12 13 14: 53.6 a.u.
2'F-ANA at 1 2 5 8 9 11 12 13 15: 67.5 a.u.
2'F-ANA at 1 3 4 5 7 8 9 10 11 12 15: 52.1 a.u.
2'F-ANA at 2 4 6 8 10 11: 70.8 a.u.
2'F-ANA at 2 3 5 6 7 9 12 13 14 15: 53.5 a.u.
2'F-ANA at 2 3 4 5 6 7 8 11 13: 71.1 a.u.
2'F-ANA at 2 6 9 10: 114 a.u.
2'F-ANA at 3 4 6 8 9 10 11 13: 209 a.u.
2'F-ANA at 1 2 3 5 7 9 11 15: 53.7 a.u.
2'F-ANA at 1 2 6 12 13: 228 a.u.

Block 3
Target: Interferon regulatory factor 7, full length, phosphomimetic (IRF7, Homo sapiens, UniProt Q92985, residues 1-503, S471D/S472D/S475D/S476D/S477D/S483D/S484D/S487D)
Technique: protein-binding microarray
Molecule type: double-stranded DNA, one strand shown
Sample: in vitro
Tested at: 2200 nM top
Notes: 60-bp whole probe
Together with: salmon DNA 0.4 mg/ml
Reference: random background probes
Direction: higher = stronger binding
Endpoint: fitted relative affinity
Constant ends, left off below: GCCTAGCAC … GTCTTGATTCGCTTGACGCTGCTG
Construct (chain): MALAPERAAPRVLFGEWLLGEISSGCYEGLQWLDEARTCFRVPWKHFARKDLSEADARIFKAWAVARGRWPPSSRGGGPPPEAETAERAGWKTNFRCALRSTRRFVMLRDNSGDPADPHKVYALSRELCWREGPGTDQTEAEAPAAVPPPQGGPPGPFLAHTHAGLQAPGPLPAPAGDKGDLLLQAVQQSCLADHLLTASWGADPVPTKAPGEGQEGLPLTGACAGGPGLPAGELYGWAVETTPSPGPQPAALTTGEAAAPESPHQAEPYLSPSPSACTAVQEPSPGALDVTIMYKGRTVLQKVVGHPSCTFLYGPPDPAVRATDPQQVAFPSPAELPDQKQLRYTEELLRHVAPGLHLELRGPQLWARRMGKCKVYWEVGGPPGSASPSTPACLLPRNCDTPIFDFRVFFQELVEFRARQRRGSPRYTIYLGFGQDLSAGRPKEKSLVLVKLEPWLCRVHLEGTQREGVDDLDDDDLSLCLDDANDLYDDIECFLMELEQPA
TCACTTATAAATAGCACACTGTGCTAG: 0.0692 z-score
GACGGACTGGACACCGGGGACGTGCTA: -1.04 z-score
GACGGACCGGACACTGGGGACGTGCTA: -1.03 z-score
GACGGTACCCTTATCCTGACGTGCTAG: 0.899 z-score
GACGAAGTGGGGTTTCGAGACGTGCTA: 1.03 z-score
GACGAACTGGGGTATCGCGACGTGCTA: -0.0455 z-score
CCAGGGCTGCCAGCCTCCTCGTGCTAG: -1.5 z-score
ATTTAAGTTTCACTCTGCATGGTGCTA: 3.98 z-score
GACGGTAGCCTACTGCTGACGTGCTAG: -0.583 z-score
CTGGCTGGGGTGGTGGCAGTGTGCTAG: -1.41 z-score
GACGATATCGGGTTTCGAGAGGTGCTA: 1.04 z-score
TTAGGACTGCTACAGCTTTAGTGCTAG: -0.353 z-score
AGACCATCCTGTATGGATGTGTGCTAG: -0.000221 z-score
GACGGAGTGCTTTTCCTGACGTGCTAG: 0.798 z-score
GACGGTTTCCTTTTCCTGAGGTGCTAG: 4.96 z-score
GACGGTTTCTGTATCGGGACGTGCTAG: 2.92 z-score
TCAATTCTGCTTTGCAAACTGTGCTAG: 0.937 z-score
TCAGCTTTAGTCATTCACACTGTGCTA: 0.362 z-score
TTAGGTATCGACTTTCGTTTAGTGCTA: 5.62 z-score
GACGGACTGCTACTGCTCACGTGCTAG: -0.135 z-score
ATATATGTATATATGTGTATGTGCTAG: 1.07 z-score
AAGGATTTCAGTTTCTCTTTGTGCTAG: 5.96 z-score
GACGGTATCGGGTTTCCGGACGTGCTA: 0.651 z-score
TTAGGACTGGACGATCGGTTAGTGCTA: -0.437 z-score

Block 4
Target: Sal-like protein 4, full length isoform B (SALL4, Homo sapiens, UniProt Q9UJQ4-2, residues 1-616)
Technique: universal PBM
Molecule type: double-stranded DNA, one strand shown
Sample: in vitro
Tested at: not given
Notes: 8-mer, flanks averaged, mean of replicates
Direction: higher = stronger binding
Endpoint: E-score
CCAACAAA: 0.136
CCCCCAAA: -0.0275
GTTCTATA: 0.22
AGCCTATC: 0.0483
GTTGCAAC: -0.0711
CATAGTTA: 0.287
ACCATGCT: 0.0288
CGGTATGA: 0.148
GAAAGCGA: -0.0599
ATCACCAT: 0.145
GATTAATA: 0.381
CTACACTA: 0.177
ATAGATGG: 0.0519
GCAAAGGC: -0.159
AAGAAACG: -0.0261
AGTGCCAG: -0.295
ATTTCTGG: 0.174
TTTAGAAA: 0.289
ACCAACGC: -0.107
ACAGCATA: 0.244
CGTCATTC: 0.101
GCGACAGA: -0.214
ATGCTTAG: 0.179
GGCTTTAC: -0.0533
CCGAGGAA: -0.234

Repeated from above (block 2):
2'F-ANA at 2 3 5 6 7 9 12 13 14 15: 53.5 a.u.
2'F-ANA at 1 2 6 7 8 10 11 13 14 15: 49.7 a.u.
2'F-ANA at 1 4 5 7 8 9 11 13 14 15: 58.9 a.u.
2'F-ANA at 1 2 4 8 9 12 14 15: 62 a.u.
2'F-ANA at 1 2 4 5 7 8 13: 52.6 a.u.
2'F-ANA at 1 2 6 12 13: 228 a.u.
2'F-ANA at 2 3 5 6 7 8 9 10: 52.6 a.u.
2'F-ANA at 4 5 9 13 14 15: 47.5 a.u.
2'F-ANA at 1 2 5 8 9 11 12 13 15: 67.5 a.u.
2'F-ANA at 1 3 4 6 7 8 10 12 13 14: 53.6 a.u.
